{"data": "Published values of several laboratories", "note": "Each line is one published result; not all experiments were run side by side. “And” joins repeats or separate records; there may be more than shown."}
{"Compound": "CCCCN1CCN(c2ccc3[nH]c(-c4ccc5[nH]c(-c6ccc(C(F)(F)F)cc6)nc5c4)nc3c2)CC1", "cell line": "NCI-H522", "test": "SRB", "conditions": "10 µM, 48 h", "measurement": "growth percent", "value": "-38.2%"}
{"Compound": "CCCc1n(Cc2ccc3ccccc3c2)c2ccccc2[n+]1Cc1ccc2ccccc2c1.[Br-]", "cell line": "NCI-H522", "test": "NCI60 five-dose screen", "measurement": "TGI", "value": "1050 nM"}
{"Compound": "CCCCN1CCN(c2ccc3[nH]c(-c4ccc5[nH]c(-c6cc(OC)c(OC)c(OC)c6)nc5c4)nc3c2)CC1", "cell line": "NCI-H522", "test": "SRB", "conditions": "10 µM, 48 h", "measurement": "growth percent", "value": "52.8%"}
{"Compound": "Cn1cncc1C1=CN(c2ncnc3[nH]cnc23)CCS1", "cell line": "NCI-H522", "conditions": "lung cancer", "measurement": "GI50", "value": "15100 nM"}
{"Compound": "C#C[C@@]1(O)[C@@H](CO)O[C@@H](n2cc(I)c3c(N)ncnc32)[C@@H]1O", "cell line": "NCI-H522", "test": "SRB", "conditions": "NCI-60 screen", "measurement": "TGI", "value": "516 nM and 698 nM"}
{"Compound": "CCCN1CCN(c2ccc3[nH]c(-c4ccc5[nH]c(-c6cc(OC)c(OC)c(OC)c6)nc5c4)nc3c2)CC1", "cell line": "NCI-H522", "test": "SRB", "conditions": "10 µM, 48 h", "measurement": "growth percent", "value": "41.1%"}
{"Compound": "CCOC(=O)CSc1nc(-c2ccc(Cl)cc2)c2c(NC(=O)c3ccccc3)nnc-2[nH]1", "cell line": "NCI-H522", "test": "SRB", "conditions": "10 µM, NCI60 single-dose screen", "scale": "reference: untreated", "measurement": "cell growth", "value": "73.3%"}
{"Compound": "O=c1ccn(Cc2cn(-c3cc4ccccc4oc3=O)nn2)c(=O)[nH]1", "cell line": "NCI-H522", "test": "NCI60 single-dose screen", "conditions": "10 µM", "measurement": "growth percentage", "value": "95.9%"}
{"Compound": "S=C([S][Au-][P+](CCCCCC[P+]([Au-][S]C(=S)n1cccn1)(c1ccccc1)c1ccccc1)(c1ccccc1)c1ccccc1)n1cccn1", "cell line": "NCI-H522", "test": "cell growth, NCI-60 screen", "conditions": "non-small cell lung cancer", "measurement": "log10 TGI", "value": -5.2}
{"Compound": "O=C(Nc1nnc2[nH]c(=S)[nH]c(-c3ccc(Cl)cc3)c1-2)c1ccccc1", "cell line": "NCI-H522", "test": "SRB", "conditions": "10 µM, NCI60 single-dose screen", "scale": "reference: untreated", "measurement": "cell growth", "value": "104%"}
{"Compound": "O=C1NC(c2ccccc2)(c2ccccc2)C(=O)N1Cc1cn(-c2c3ccccc3nc3ccccc23)nn1", "cell line": "NCI-H522", "test": "NCI60 single-dose screen", "conditions": "10 µM", "measurement": "growth percentage", "value": "15.9%"}
{"Compound": "O=C(Nc1nnc2n3c(=S)[nH][nH]c3nc(-c3ccc(Cl)cc3)c1-2)c1ccccc1", "cell line": "NCI-H522", "test": "SRB", "conditions": "10 µM, NCI60 single-dose screen", "scale": "reference: untreated", "measurement": "cell growth", "value": "94.7%"}
{"Compound": "CCCN1CCN(c2ccc3nc(-c4ccc5nc(-c6cc(OC)ccc6OC)[nH]c5c4)[nH]c3c2)CC1", "cell line": "NCI-H522", "test": "SRB", "conditions": "10 µM, 48 h", "measurement": "growth percent", "value": "113%"}
{"Compound": "CC(=O)O[C@H]1C(=O)[C@@]2(C)[C@H]([C@H](OC(=O)c3ccccc3)[C@]3(O)C[C@H](OC(=O)[C@H](O)[C@@H](NC(=O)c4ccccc4)c4ccccc4)C(C)=C1C3(C)C)[C@]1(OC(C)=O)CO[C@@H]1C[C@@H]2O", "cell line": "NCI-H522", "test": "sulforhodamine B", "system": "NSCLC cancer", "conditions": "NCI60 screen", "measurement": "TGI", "value": "80 nM"}
{"Compound": "CN1CCN(c2ccc3[nH]c(-c4ccc5[nH]c(-c6ccc(C(F)(F)F)cc6)nc5c4)nc3c2)CC1", "cell line": "NCI-H522", "test": "SRB", "conditions": "10 µM, 48 h", "measurement": "growth percent", "value": "64.1%"}
{"Compound": "C#C[C@@]1(O)[C@@H](CO)O[C@@H](n2cc(Br)c3c(N)ncnc32)[C@@H]1O", "cell line": "NCI-H522", "test": "SRB", "conditions": "NCI-60 screen", "measurement": "TGI", "value": "593 nM and 332 nM"}
{"Compound": "O=C(Nc1nnc2n3c(Cc4ccccc4)n[nH]c3nc(-c3ccc(Cl)cc3)c1-2)c1ccccc1", "cell line": "NCI-H522", "test": "SRB", "conditions": "10 µM, NCI60 single-dose screen", "scale": "reference: untreated", "measurement": "cell growth", "value": "106%"}
{"Compound": "CCN(CC)c1ccc(C=NNC(=O)CSc2nc3ccccc3c(=O)n2Cc2ccc(S(N)(=O)=O)cc2)c(O)c1", "cell line": "NCI-H522", "test": "NCI five-dose screen", "measurement": "TGI", "value": "> 100000 nM"}
{"Compound": "COCCOCCOCc1n(Cc2ccc3ccccc3n2)c2ccccc2[n+]1Cc1ccc2ccccc2c1.[Br-]", "cell line": "NCI-H522", "test": "NCI60 five-dose screen", "measurement": "TGI", "value": "936 nM"}
{"Compound": "CCCC(CCC)C(=O)OCc1cn(-c2c3ccccc3nc3ccccc23)nn1", "cell line": "NCI-H522", "test": "NCI60 single-dose screen", "conditions": "10 µM", "measurement": "growth percentage", "value": "88.3%"}
{"Compound": "O=C(Nc1nnc2n3c(nc(-c4ccc(Cl)cc4)c1-2)SCC3=O)c1ccccc1", "cell line": "NCI-H522", "test": "SRB", "conditions": "10 µM, NCI60 single-dose screen", "scale": "reference: untreated", "measurement": "cell growth", "value": "92%"}
{"Compound": "CCCN1CCN(c2ccc3[nH]c(-c4ccc5[nH]c(-c6ccc(OCC)c(OCC)c6)nc5c4)nc3c2)CC1", "cell line": "NCI-H522", "test": "SRB", "conditions": "10 µM, 48 h", "measurement": "growth percent", "value": "-44.8%"}
{"Compound": "C=C1C(=O)O[C@@H](CCC)[C@@H]1C(=O)O (racemic)", "cell line": "OCI-Ly1", "conditions": "0.5 µM, 120 h", "measurement": "viability", "value": "173%"}
{"Compound": "[Br-].c1ccc2cc(Cn3c[n+](Cc4ccc5ccccc5c4)c4ccccc43)ccc2c1", "cell line": "NCI-H522", "test": "NCI60 five-dose screen", "measurement": "TGI", "value": "2820 nM"}
{"Compound": "Cc1cc(C)n(-c2nc(-c3ccc(Cl)cc3)c3c(NC(=O)c4ccccc4)nnc-3[nH]2)n1", "cell line": "NCI-H522", "test": "SRB", "conditions": "10 µM, NCI60 single-dose screen", "scale": "reference: untreated", "measurement": "cell growth", "value": "76.5%"}
{"Compound": "O=C(/C=C/C#Cc1cccc(NS(=O)(=O)c2ccccc2)c1)NO", "cell line": "OCI-Ly1", "conditions": "1 µM, 120 h", "measurement": "viability", "value": "32.1%"}
{"note": "For quick reference, copied from above:"}
{"Compound": "CCCc1n(Cc2ccc3ccccc3c2)c2ccccc2[n+]1Cc1ccc2ccccc2c1.[Br-]", "cell line": "NCI-H522", "test": "NCI60 five-dose screen", "measurement": "TGI", "value": "1050 nM"}
{"Compound": "CCCCN1CCN(c2ccc3[nH]c(-c4ccc5[nH]c(-c6cc(OC)c(OC)c(OC)c6)nc5c4)nc3c2)CC1", "cell line": "NCI-H522", "test": "SRB", "conditions": "10 µM, 48 h", "measurement": "growth percent", "value": "52.8%"}
